Assay results of several laboratories.
Each line is one published result; not all experiments were run side by side. Several values in a cell are separate wells, animals, samples, runs or records. ± marks the error that the study gave.
C1-hpah: p-hydroxyphenylacetate 3-hydroxylase, reductase component (C1-hpah, Acinetobacter baumannii, UniProt Q6Q271)
CES3: Carboxylesterase 3 (CES3, Homo sapiens, UniProt Q6UWW8)
PPO3: PPO3 (Agaricus bisporus, UniProt C7FF04)
T1: DNA hairpin, hairpin, TTTT loop; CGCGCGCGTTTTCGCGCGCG

| SMILES | target | assay | system | conditions | scale | quantity | result |
| --- | --- | --- | --- | --- | --- | --- | --- |
| O=C(O)CCc1ccc(O)cc1 | C1-hpah | ITC |  | pH 7 |  | ΔG | -5.13 ± 0.02 kcal/mol |
| CCCC(=O)Nc1ccc(OC)nc1C | CES3 | substrate |  | 50 µM, pH 8, 37 °C, enzyme purity 3% |  | specific activity | < 1 pmol/min/µg |
| NCCCC[C@H](NC(=O)[C@H](CCCCN)NC(=O)[C@@H](N)CCCCN)C(=O)NCC(=O)NCC(=O)NCCCCCCCCNC(=O)COc1ccc(-c2ccccn2)cc1 | Calmodulin-1, Ca2+-bound (CALM1, Homo sapiens, UniProt P0DP23) | binding, quartz crystal microbalance | PBS | 25 °C, with: Ca2+ |  | association constant | 300000 ± 10000 M^–1 |
| CNc1ccccc1C(=O)O[C@H]1C[C@H](n2cnc3c(N)ncnc32)O[C@@H]1COP(=O)(O)OP(=O)(O)O | Unconventional myosin-Va (Gallus gallus, UniProt Q02440, D297C/G292C/I296C/S293C/V295G) | stopped-flow FRET |  | 25 °C, with: MgCl2 2 mM |  | pocket forward rate constant | 1.33 ± 0.91 s⁻¹ |
| CCN(CC)C(=O)c1ccc(O)c(OC)c1 | Heat shock protein HSP 90-alpha, N-terminal domain (HSP90AA1, Homo sapiens, UniProt P07900) | binding, ligand-observed NMR titration |  | ligand to protein ratio 366 |  | bound ligand fraction | 0.22 mol % |
| CC(C)C[C@H](NC(=O)[C@H](CCC(=O)O)NC(=O)[C@@H](N)CS)C(=O)N[C@@H](CC(N)=O)C(=O)O | PPO3 | enzyme activity, inhibitor |  | 12.5 µM |  | remaining activity | 90.3% |
| NS(=O)(=O)c1ccc(-n2nc(C(F)(F)F)cc2-c2ccc(F)cc2F)cc1 | Prostaglandin G/H synthase 1 (Canis lupus familiaris, UniProt Q8HZR1) | TXB2 formation, inhibitor | dog whole blood | clotting |  | Hill coefficient | 1.7 |
| O=C(Cc1ccccc1Nc1c(Cl)cccc1Cl)O[C@@H]1O[C@H](C(=O)O)[C@@H](O)[C@H](O)[C@H]1O | ABCC4 (Homo sapiens, UniProt O15439) | LTC4 transport, inhibitor | inside-out membrane vesicles | with: LTC4 |  | IC50 | > 300 µM |
| CCC1(O)CCCN(C(=O)c2ccc(-c3ccc(F)c(C(N)=O)c3)cc2)C1 (stereo not drawn) | DNA dC->dU-editing enzyme APOBEC-3B, C-terminal domain (Homo sapiens, UniProt Q9UH17) | binding, 1H CPMG NMR |  | 20 µM protein |  | signal attenuation | 43.7% and 44% |
| CC1=C(/C=C/C=C\C=C\C(C)=C\C=O)C(C)(C)CCC1 | Rhodopsin, apoprotein (opsin) (RHO, Bos taurus, UniProt P02699) |  |  | pigment regenerated |  | absorption maximum | 464 nm |
| CCOC(=O)[C@H](CCCNC(N)=O)NC(=O)[C@H](Cc1c[nH]c2ccccc12)NC(=O)[C@@H]1CCCCN1C(=O)[C@H](Cc1ccccc1)N(C)C(=O)CCl | PIN1 (Homo sapiens, UniProt Q13526) |  | PaTu 8988t | single treatment, with: BJP-DTB probe |  | duration of engagement | 48 h |
| CCCCCCCC(=O)Nc1ccc(OC)nc1 | CES3 | substrate |  | 50 µM, pH 8, 37 °C, enzyme purity 3% |  | specific activity | 6.6 pmol/min/µg |
| O=C(O)Cc1ccccc1O | C1-hpah | ITC |  | pH 7 |  | ΔG | -4.99 ± 0.04 kcal/mol |
| O=C(Nc1ccc(C(=O)Nc2ccc(C(=O)Nc3ccc(S(=O)(=O)O)c4cc(S(=O)(=O)O)cc(S(=O)(=O)O)c34)cc2)cc1)Nc1ccc(C(=O)Nc2ccc(C(=O)Nc3ccc(S(=O)(=O)O)c4cc(S(=O)(=O)O)cc(S(=O)(=O)O)c34)cc2)cc1 | Neutrophil elastase (ELANE, Homo sapiens, UniProt P08246) | substrate S-1384 hydrolysis |  | pH 7.4, 37 °C, enzyme 100 nM |  | Km | 249 ± 38.6 µM |
| O=C(CCn1ccc2ccccc21)N(c1ccc(F)cc1)c1ccc(F)cc1 | Proteasome subunit alpha type-2/Proteasome subunit alpha type-6, 20S proteasome (Homo sapiens, UniProt P25787+P60900) | proteolysis, activator, fluorogenic peptide | purified 20S proteasome | up to 30 µM, with: Suc-LLVY-AMC, Z-LLE-AMC, Boc-LRR-AMC | baseline: vehicle | maximum fold increase | 3.5 ± 0.9 |
| [Ru+2].[Ru+2].c1cnc2c(c1)c1nc(-c3ccc(OCCOCCOc4ccc(-c5nc6c7cccnc7c7ncccc7c6[nH]5)cc4)cc3)[nH]c1c1cccnc12.c1cnc2c(ccc3nccnc32)n1.c1cnc2c(ccc3nccnc32)n1.c1cnc2c(ccc3nccnc32)n1.c1cnc2c(ccc3nccnc32)n1 | T1, DNA hairpin, hairpin, TTTT loop | BLI |  | pH 7.04, K+ 100 mM |  | Kd | 7.61 µM |
| C=C1C(=O)O[C@@H]2[C@H]3C(CO)=CC(=O)C3=C(C)C[C@H](OC(=O)Cc3ccc(O)cc3)[C@@H]12 | MAL12 (Saccharomyces cerevisiae S288c, UniProt P53341) | synchronous fluorescence, Δλ 60 nm |  | up to 65.22 µM, 298 K, red-shifted from 288 nm |  | Trp emission peak wavelength | 294 nm |
| C[C@@]12CC[C@@H]3c4cc(I)c(O)c(I)c4CC[C@H]3[C@@H]1CCC2=O | AKR1C1 (Homo sapiens, UniProt Q04828) | enzyme activity, inhibitor, absorbance |  | 100 µM, pH 9 |  | inhibition | 77.5% |

| SMILES | target | assay | system | conditions | scale | quantity | result |
| --- | --- | --- | --- | --- | --- | --- | --- |
| CN(C)S(=O)(=O)c1ccc(S(=O)(=O)N2CCC(n3c(=O)[nH]c4ccccc43)CC2)cc1 | ATP-dependent helicase NAM7, helicase domain (NAM7, Saccharomyces cerevisiae, UniProt P30771) | enzyme activity |  | 100 µM |  | ATPase activity | no effect |
| CC[C@H](C)[C@H](NC(=O)[C@H](CCCCN)NC(=O)[C@H](CCCCN)NC(=O)[C@@H](NC(=O)[C@H](CCC(=O)O)NC(=O)[C@H](CCC(=O)O)NC(=O)[C@H](CCC(=O)O)NC(=O)[C@H](CO)NC(=O)[C@H](C)NC(=O)[C@H](CC(=O)O)NC(=O)[C@H](CC(C)C)NC(=O)CNC(=O)[C@H](CCCNC(=N)N)NC(=O)[C@H](CC(C)C)NC(=O)[C@H](CO)NC(=O)CNC(=O)CNC(=O)CNC(=O)CCCC[C@@H]1SC[C@@H]2NC(=O)N[C@@H]21)C(C)C)C(=O)N[C@@H](CC(C)C)C(=O)N[C@@H](CC(=O)O)C(=O)N[C@@H](CCC(=O)O)C(=O)N[C@H](C(=O)N[C@H](C(=O)N[C@@H](CCCCN)C(=O)N[C@@H](CC(=O)O)C(=O)O)C(C)C)[C@@H](C)CC | Fab B11 antibody (human) | binding, biolayer interferometry |  |  | baseline: alanine mutant over wild type | Kd ratio | 9.1 |
| CC(C)C[C@H](NC(=O)[C@H](CO)NC(=O)[C@H](CC(C)C)NC(=O)[C@@H]1CCCN1C(=O)CNC(=O)[C@@H](N)Cc1ccccc1)C(=O)N[C@@H](CCCNC(=N)N)C(=O)N[C@@H](CO)C(=O)N[C@@H](CCCCN)C(=O)O | MMP9 (Homo sapiens, UniProt P14780) | substrate, HPLC |  | 500 µM, 72 h, pH 7.5, 37 °C |  | hydrolysis product | 100% |
| FC(F)(F)c1ccc2[nH]c(C(F)(F)F)nc2c1 | DUSP3 (Homo sapiens, UniProt P51452) | ligand-observed 19F NMR |  | concentration not given, with: DUSP3 4 or 8 µM |  | binding | active |
| CC(C)C[C@H](NC(=O)[C@H](CC(C)C)NC(=O)[C@H](CCC(=O)O)NC(=O)[C@@H](N)CS)C(=O)O | PPO3 | enzyme activity, inhibitor |  | 12.5 µM |  | remaining activity | 83.6% |
| O=C([O-])CN(CCN(CC(=O)[O-])Cc1cc(CCC(=O)NCCCCCC(=O)NCCCC[C@H](NC(=O)N[C@@H](CCC(=O)O)C(=O)O)C(=O)O)ccc1O)Cc1cc(CCC(=O)O)ccc1[O-].[68Ga+3] | FOLH1 (Homo sapiens, UniProt Q04609) | PET/CT | prostate cancer patients, lymph node metastases | 60 min | baseline: lesion SUVmax over muscle SUVmean | mean tumour-to-background ratio | 56.2 |
| COc1cc(F)c(C(C)C)cc1C1=C(CN2C(=O)O[C@H](c3cc(C(F)(F)F)cc(C(F)(F)F)c3)[C@@H]2C)CC(C)(C)CC1 | Cholesteryl ester transfer protein (Homo sapiens, UniProt P11597) | enzyme activity | healthy male subjects, plasma | oral, 25 mg single dose | baseline: baseline | maximum inhibition | 65.4% |
| CCc1cc(C)nc2c(CC(=O)N(CC)CC)c(-c3ccc(OCC[18F])cc3)nn12 | Tspo (Rattus norvegicus, UniProt P16257) | two-tissue compartment model | rat C6 glioma model, brain | 60 min dynamic PET |  | k3 rate constant | 0.727 ± 0.161 min⁻¹ |
| CCCC[C@H](NC(=O)CNC(=O)CNC(=O)CN1CCN(CC(=O)O)CCN(CC(=O)O)CC1)C(=O)N[C@H]1CC(=O)NCCCC[C@@H](C(N)=O)NC(=O)[C@H](Cc2c[nH]c3ccccc23)NC(=O)[C@H](CCCNC(=N)N)NC(=O)[C@@H](Cc2ccccc2)NC(=O)[C@H](Cc2c[nH]cn2)NC1=O [gallium-67 labelled] | Mc1r (Mus musculus, UniProt Q01727) |  | mouse B16-F1 tumour | dose not given, 2 h, with: NDP-MSH 6.07 nmol |  | tumour uptake reduction | ~90.8% |
| CC12CC(O)C3CC1(OC1OC(CO)C(O)C(O)C1O)C3(COC(=O)c1ccccc1)C(=O)O2 (stereo not drawn) | Dao (Mus musculus, UniProt P18894) |  | mouse brain homogenate | 10 µg/mL, 30 min, 37 °C |  | enzyme activity | no effect |
| Cc1ncsc1-c1ccc([C@@H]2CCCCCCNC(=O)C[C@@H]3N=C(c4ccc(cc4)OCCCCCC(=O)N[C@@H](C(C)(C)C)C(=O)N4C[C@H](O)C[C@H]4C(=O)N2)c2c(sc(C)c2C)-n2c(C)nnc23)cc1 | BRD4 (Homo sapiens, UniProt O60885) | degrader, immunoblotting | PC-3 | 24 h |  | lowest concentration with clear degradation | 2 to 4 nM |
| O=C(c1cc2c(s1)CCCCC2)N1CCC(n2c(=O)[nH]c3ccccc32)CC1 | Trpc6 (Mus musculus, UniProt Q61143) | ion current, agonist, outside-out patch clamp | HEK293 | 1 µM, holding -60 mV |  | unitary current | ~2.2 pA |
| CN1C(=O)c2cccc3c2C1=Cc1ccccc1N3Cc1cccc(NC2CCN([11CH3])CC2)c1 | Bromodomain-containing protein 4, BD2 (Brd4, Mus musculus, UniProt Q9ESU6) | tracer, autoradiography | mouse brain sections | concentration not given, with: unlabeled blocker 10 µM |  | binding reduction | 40% |
| Nc1ncc2ncn([C@@H]3O[C@@H]4COP(=O)(O)O[C@H]5[C@@H](O)[C@H](n6cnc7cnc(N)nc76)O[C@@H]5COP(=O)(O)O[C@H]4[C@H]3O)c2n1 | ydaO riboswitch, Bacillus subtilis, wild type | competition gel shift |  | up to 200 µM, with: c-di-AMP |  | binding | no binding |
| Cc1cc(N2CC[C@](C#N)(C3(C)CC3)C2=O)cc(C(=O)NCc2cc(F)cc(-c3cnn(C)c3)c2)n1 | Proline--tRNA ligase (Plasmodium falciparum, UniProt Q8I5R7) | thermal shift |  | with: ATP 2 mM |  | melting temperature | 62.6 °C |
| CCCC[C@H](NC(=O)COCC(=O)NCCCOCCOCCOCCCNC(=O)CNC(=O)[C@@H]1CCCN1C(=O)CNC(=O)[C@@H]1CCCN1C(=O)CNC(=O)[C@@H]1CCCN1C(=O)CNC(=O)[C@@H]1CCCN1C(=O)CNC(=O)[C@@H]1CCCN1C(=O)CNC(=O)[C@@H]1CCCN1C(=O)COCC(=O)NCCCOCCOCCOCCCNC(=O)[C@H](Cc1c[nH]c2ccccc12)NC(=O)[C@H](CCCNC(=N)N)NC(=O)[C@@H](Cc1ccccc1)NC(=O)[C@H](Cc1c[nH]cn1)NC(=O)[C@H](CCC(=O)O)NC(=O)[C@H](CCCC)NC(=O)[C@H](CO)NC(C)=O)C(=O)NCC(=O)N[C@@H](Cc1c[nH]c2ccccc12)C(=O)N[C@@H](CCCC)C(=O)N[C@@H](CC(=O)O)C(=O)N[C@@H](Cc1ccccc1)C(N)=O | CCKBR/MC4R (Homo sapiens, UniProt P32239+P32245) | bivalent binding | cells expressing CCK2R and MC4R | with: Eu-DTPA-CCK-8 | baseline: single- over dual-expressing cells | IC50 ratio | 4 fold |
| COc1ccc(-c2cc(C(F)(F)F)nc(S(=O)(=O)CCCC(=O)Nc3ccccc3F)n2)cc1OC | AVPR2 (Homo sapiens, UniProt P30518) | cAMP accumulation, positive allosteric modulator | CHO-K1 overexpressing AVPR2 | with: vasopressin at EC20 |  | Emax | 26 ± 8.2% |
| C=C1CN(S(=O)(=O)c2ccc(C)cc2)CCCN(Cc2ccccc2)CCCN(S(=O)(=O)c2ccc(C)cc2)C1 | Endoplasmic reticulum lectin 1 (ERLEC1, Homo sapiens, UniProt Q96DZ1) | SILAC mass spectrometry | SUP-T1, crude membrane fraction | 10 µM, 17 h, reverse labelling | baseline: DMSO over compound | protein level ratio | 2.11 |
